Experimental data gathered from unrelated publications.
± gives the spread as reported.
CYP27A1: Sterol 26-hydroxylase, mitochondrial (CYP27A1, Homo sapiens, UniProt Q02318)
UniProt Q02318, sequence (whole entry, looked up): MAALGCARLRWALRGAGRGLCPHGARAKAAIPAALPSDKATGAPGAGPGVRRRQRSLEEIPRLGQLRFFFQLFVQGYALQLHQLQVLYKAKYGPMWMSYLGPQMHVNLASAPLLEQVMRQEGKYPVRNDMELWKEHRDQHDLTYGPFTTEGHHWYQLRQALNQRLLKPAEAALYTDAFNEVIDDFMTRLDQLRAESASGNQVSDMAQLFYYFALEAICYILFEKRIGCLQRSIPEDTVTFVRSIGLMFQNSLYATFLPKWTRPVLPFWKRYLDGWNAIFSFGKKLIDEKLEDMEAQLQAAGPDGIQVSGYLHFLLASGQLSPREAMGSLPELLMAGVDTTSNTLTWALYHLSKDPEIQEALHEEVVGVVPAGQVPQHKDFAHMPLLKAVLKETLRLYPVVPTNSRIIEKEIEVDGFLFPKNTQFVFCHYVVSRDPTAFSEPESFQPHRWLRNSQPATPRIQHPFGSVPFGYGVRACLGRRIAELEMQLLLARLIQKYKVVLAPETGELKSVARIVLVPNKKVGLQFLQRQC
MMP2: 72 kDa type IV collagenase (MMP2, Homo sapiens, UniProt P08253)
UniProt P08253, sequence (whole entry, looked up): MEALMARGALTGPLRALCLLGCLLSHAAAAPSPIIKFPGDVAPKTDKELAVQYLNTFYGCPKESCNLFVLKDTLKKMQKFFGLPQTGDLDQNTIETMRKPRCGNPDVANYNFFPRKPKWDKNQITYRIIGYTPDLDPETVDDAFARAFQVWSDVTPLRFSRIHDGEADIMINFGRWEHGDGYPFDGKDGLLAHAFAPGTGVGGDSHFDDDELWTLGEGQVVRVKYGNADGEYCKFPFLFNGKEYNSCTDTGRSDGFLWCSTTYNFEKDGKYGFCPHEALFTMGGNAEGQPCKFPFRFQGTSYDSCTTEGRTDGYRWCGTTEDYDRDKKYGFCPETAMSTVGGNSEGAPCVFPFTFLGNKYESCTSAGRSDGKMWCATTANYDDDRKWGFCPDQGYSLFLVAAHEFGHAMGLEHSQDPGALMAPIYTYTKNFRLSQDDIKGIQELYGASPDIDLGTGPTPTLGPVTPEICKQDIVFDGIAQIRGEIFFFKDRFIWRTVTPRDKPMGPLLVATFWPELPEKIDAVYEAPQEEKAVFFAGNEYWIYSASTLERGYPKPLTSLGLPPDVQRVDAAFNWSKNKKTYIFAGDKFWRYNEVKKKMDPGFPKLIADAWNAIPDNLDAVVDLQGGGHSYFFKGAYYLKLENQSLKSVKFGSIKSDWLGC
KCNH2: Voltage-gated inwardly rectifying potassium channel KCNH2 (KCNH2, Homo sapiens, UniProt Q12809)
UniProt Q12809, sequence (whole entry, looked up): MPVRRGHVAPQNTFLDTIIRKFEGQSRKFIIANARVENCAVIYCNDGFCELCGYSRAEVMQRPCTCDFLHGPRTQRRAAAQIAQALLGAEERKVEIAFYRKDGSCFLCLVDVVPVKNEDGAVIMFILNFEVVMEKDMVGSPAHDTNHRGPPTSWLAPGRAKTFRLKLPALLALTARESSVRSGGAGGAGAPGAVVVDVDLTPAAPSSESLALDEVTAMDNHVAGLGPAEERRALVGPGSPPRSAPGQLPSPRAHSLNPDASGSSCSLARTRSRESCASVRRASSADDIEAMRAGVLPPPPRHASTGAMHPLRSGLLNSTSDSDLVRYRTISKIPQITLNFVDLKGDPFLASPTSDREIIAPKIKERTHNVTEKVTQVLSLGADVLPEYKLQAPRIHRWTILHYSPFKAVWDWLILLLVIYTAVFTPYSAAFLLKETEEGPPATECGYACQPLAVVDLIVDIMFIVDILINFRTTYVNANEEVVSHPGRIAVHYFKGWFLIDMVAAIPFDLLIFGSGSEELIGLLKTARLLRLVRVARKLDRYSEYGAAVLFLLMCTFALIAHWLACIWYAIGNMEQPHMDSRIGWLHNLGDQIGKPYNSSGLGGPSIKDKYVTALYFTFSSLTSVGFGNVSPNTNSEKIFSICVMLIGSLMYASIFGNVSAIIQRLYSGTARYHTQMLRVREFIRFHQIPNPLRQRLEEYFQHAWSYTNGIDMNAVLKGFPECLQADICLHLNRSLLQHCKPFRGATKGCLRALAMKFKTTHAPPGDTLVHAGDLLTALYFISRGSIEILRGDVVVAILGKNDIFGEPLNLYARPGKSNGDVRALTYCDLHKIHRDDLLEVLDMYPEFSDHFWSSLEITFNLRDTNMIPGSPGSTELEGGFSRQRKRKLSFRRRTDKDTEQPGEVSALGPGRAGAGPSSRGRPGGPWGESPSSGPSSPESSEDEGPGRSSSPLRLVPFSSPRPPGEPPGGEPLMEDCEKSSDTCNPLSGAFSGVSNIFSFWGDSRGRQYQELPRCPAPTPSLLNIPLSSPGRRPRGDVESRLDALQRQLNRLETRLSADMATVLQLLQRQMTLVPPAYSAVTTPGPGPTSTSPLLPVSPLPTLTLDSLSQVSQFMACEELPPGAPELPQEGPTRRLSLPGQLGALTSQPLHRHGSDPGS
UniProt P10111, sequence (whole entry, looked up): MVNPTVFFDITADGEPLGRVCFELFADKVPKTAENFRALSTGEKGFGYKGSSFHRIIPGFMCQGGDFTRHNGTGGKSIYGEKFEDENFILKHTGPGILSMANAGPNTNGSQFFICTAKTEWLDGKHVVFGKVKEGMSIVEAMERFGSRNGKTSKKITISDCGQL
UniProt P16257, sequence (whole entry, looked up): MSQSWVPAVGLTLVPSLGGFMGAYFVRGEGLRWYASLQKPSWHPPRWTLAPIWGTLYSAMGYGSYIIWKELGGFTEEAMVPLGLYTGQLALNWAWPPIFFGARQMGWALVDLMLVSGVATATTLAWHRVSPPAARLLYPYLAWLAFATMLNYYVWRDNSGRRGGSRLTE
UniProt P10635, sequence (whole entry, looked up): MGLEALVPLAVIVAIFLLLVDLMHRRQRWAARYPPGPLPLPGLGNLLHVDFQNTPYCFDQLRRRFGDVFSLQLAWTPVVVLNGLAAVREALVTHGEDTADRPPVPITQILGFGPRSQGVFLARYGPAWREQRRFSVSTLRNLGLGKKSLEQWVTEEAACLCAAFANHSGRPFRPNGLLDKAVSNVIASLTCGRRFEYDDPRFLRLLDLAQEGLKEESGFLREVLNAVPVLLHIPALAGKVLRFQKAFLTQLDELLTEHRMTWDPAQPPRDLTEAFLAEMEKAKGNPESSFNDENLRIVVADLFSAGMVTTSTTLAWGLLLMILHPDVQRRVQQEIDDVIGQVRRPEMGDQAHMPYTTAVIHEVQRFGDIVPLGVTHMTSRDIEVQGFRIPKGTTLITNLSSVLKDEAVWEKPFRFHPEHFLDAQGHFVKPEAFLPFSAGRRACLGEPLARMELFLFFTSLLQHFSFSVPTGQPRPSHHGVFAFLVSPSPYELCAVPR
UniProt P00760, sequence (whole entry, looked up): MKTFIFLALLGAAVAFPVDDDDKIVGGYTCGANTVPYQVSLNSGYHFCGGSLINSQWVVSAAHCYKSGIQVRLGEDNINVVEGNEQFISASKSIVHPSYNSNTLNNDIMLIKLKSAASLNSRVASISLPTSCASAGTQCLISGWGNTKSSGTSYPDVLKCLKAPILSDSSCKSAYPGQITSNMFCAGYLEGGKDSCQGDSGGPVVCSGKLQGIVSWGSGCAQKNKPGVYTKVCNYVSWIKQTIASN
UniProt P08684, sequence (whole entry, looked up): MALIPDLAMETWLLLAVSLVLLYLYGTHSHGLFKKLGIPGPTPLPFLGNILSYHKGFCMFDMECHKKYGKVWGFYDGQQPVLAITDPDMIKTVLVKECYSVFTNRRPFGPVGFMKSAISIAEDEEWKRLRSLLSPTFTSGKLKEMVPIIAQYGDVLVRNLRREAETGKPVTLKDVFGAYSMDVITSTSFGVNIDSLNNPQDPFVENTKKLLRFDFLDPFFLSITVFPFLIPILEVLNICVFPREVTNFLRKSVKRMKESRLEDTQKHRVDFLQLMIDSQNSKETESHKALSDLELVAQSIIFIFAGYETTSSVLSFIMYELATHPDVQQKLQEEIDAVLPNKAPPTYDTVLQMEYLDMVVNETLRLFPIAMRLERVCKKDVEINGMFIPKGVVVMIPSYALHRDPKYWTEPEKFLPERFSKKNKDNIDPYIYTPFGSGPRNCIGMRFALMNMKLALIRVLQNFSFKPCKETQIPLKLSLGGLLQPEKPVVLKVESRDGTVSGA
UniProt P11980, sequence (whole entry, looked up): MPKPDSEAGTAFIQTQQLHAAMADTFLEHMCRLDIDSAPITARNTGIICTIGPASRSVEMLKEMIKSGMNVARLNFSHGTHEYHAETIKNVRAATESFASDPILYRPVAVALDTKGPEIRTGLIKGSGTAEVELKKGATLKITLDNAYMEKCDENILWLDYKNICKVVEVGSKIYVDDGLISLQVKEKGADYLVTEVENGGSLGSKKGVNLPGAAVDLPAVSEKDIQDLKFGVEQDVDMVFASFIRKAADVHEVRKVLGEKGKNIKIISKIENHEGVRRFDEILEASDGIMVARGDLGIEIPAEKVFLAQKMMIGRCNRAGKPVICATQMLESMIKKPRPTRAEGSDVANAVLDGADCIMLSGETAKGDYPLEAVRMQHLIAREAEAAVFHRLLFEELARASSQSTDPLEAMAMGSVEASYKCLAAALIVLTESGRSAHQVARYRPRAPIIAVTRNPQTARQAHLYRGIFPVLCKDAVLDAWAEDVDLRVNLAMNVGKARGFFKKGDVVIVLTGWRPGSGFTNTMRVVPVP
UniProt Q9CPV9, sequence (whole entry, looked up): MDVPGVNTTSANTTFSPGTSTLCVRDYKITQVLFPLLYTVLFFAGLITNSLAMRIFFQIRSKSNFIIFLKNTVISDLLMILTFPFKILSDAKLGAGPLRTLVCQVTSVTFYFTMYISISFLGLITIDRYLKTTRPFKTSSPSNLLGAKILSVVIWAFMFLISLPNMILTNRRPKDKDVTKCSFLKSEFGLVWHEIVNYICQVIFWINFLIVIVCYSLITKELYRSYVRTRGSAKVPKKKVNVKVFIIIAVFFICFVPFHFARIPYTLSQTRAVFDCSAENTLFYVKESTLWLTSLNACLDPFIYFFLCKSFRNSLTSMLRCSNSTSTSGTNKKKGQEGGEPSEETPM

C=C1CCC(O)CC1=CC=C1CCCC2(C)C1CCC2C(C)(O)c1ccccc1 (stereo not drawn) — substrate conversion (CYP27A1; substrate; 50 µM, 3 h, 0.45% cyclodextrin, 1 µM enzyme): 0%
Cc1cccc(Cn2ncc3c4cc(F)c(CN(C)C)cc4n(C)c3c2=O)n1 — half-life of slow phase (Pyruvate kinase PKM (Rattus norvegicus, UniProt P11980); enzyme activity, activator; rat, retina; intravitreal, 1 µM vitreous concentration): 45.6 days
[64Cu+2].c1ccc(CNCc2ccc(CN3CCCN4CCNCCCN(CC4)CC3)cc2)nc1 — tissue uptake (CXCR4 (human); NOD/SCID mice, U87 xenografts, small intestine; 120 min post-injection): 3.69 ± 1.1 %ID/g
CNC(=O)c1ccc(N2CCN(Cc3ccc4nc(C)c(=O)[nH]c4c3F)CC2)c([18F])n1 — radioactivity uptake (Poly [ADP-ribose] polymerase 1 (Macaca mulatta, UniProt H9FQ77); PET; male rhesus monkeys, pons; intravenous, dose not given, baseline): 0.67 SUV
COc1cc2c(CCNC(C)=O)c[nH]c2cc1OS(=O)(=O)O — concentration (Abcg2 (mouse); FVB/N wild-type male mice, small intestinal content; oral, 10 mg/kg melatonin, 1 h): 10000 ± 3500 ng/g
C=CC(=O)Nc1cc(Nc2nccc(-c3cn(C)c4ccccc34)n2)c(OCC(F)(F)F)nc1N(C)CCN(C)C — activity vs control (Cytochrome P450 3A4 (CYP3A4, Homo sapiens, UniProt P08684); enzyme activity, inhibitor; human, liver microsomes; 0.33 µM, testosterone probe): 102%
COc1cc(-c2nc3ccccc3s2)cc(CN(C)Cc2ccccn2)c1O — pCu (Cu2+; 50 µM, pH 6.6, 1:1 metal:ligand): 7
CC(C)C[C@H](NC(=O)[C@@H]1CCCN1C(=O)[C@H](CCCCNC(=O)CN1CCN(CC(=O)O)CCN(CC(=O)O)CCN(CC(=O)O)CC1)NC(=O)CC[C@@H]1NC(=O)[C@@H](Cc2ccccc2)NC(=O)[C@H](CC(=O)O)NC(=O)CNC(=O)[C@H](CCCNC(=N)N)NC1=O)C(=O)NCC(=O)O [copper-64 labelled] — peptide cleavage (MMP2; substrate, radio-HPLC): no effect
CCc1nc(N)nc(N)c1C#CC(C)c1cc(-c2cc(C)nc(C)c2)ccc1OC (racemic) — IC50 (Cytochrome P450 2D6 (CYP2D6, Homo sapiens, UniProt P10635); enzyme activity, inhibitor, fluorescence): 12.9 µM
COC(=O)CC[C@@H](NC(=O)[C@@H](Cc1ccc(OP(=O)(O)O)cc1)NC(=O)[C@@H](Cc1ccccc1)NC(=O)[C@@H](Cc1ccccc1)NC(=O)Cc1ccc2ccccc2c1)C(=O)OC — ester hydrolysis (carboxylesterase; substrate; HepG2; 200 µM, 24 h): 26%
C/C=C/C[C@@H](C)[C@@H](O)[C@H]1C(=O)N[C@@H](CC)C(=O)N(C)C(Cc2ccc(C(=O)NCCOCCNC(=O)CC[P+](c3ccccc3)(c3ccccc3)c3ccccc3)cc2)C(=O)N(C)[C@@H](CC(C)C)C(=O)N[C@@H](C(C)C)C(=O)N(C)[C@@H](CC(C)C)C(=O)N[C@@H](C)C(=O)N[C@H](C)C(=O)N(C)[C@@H](CC(C)C)C(=O)N(C)[C@@H](CC(C)C)C(=O)N(C)[C@@H](C(C)C)C(=O)N1C (stereo partly drawn) — inhibition (Peptidyl-prolyl cis-trans isomerase A (Rattus norvegicus, UniProt P10111); parallel incubation with rat mitochondria; concentration not given, at IC50 for pore opening): 1 ± 1%
N#Cc1cc(C(=O)OCC[18F])c(C(F)(F)F)nc1N1CCN(C(=O)Cc2ccccc2)CC1 — SUV (P2Y purinoceptor 12 (P2ry12, Mus musculus, UniProt Q9CPV9); PET; aged mouse, 60 weeks, brain; 11.1 MBq, 60 min): 0.45 ± 0.06
C=C1CCC(O)CC1=CC=C1CCCC2(C)C1CCC2C(C)(C)O (stereo not drawn) — substrate conversion (CYP27A1; substrate; 50 µM, 3 h, 0.45% cyclodextrin, 1 µM enzyme): 0%
C/C=C/C[C@@H](C)[C@@H](O)[C@H]1C(=O)N[C@@H](CC)C(=O)N(C)C(Cc2ccc(C(=O)NCCCCCCNC(=O)CCCCC[P+](c3ccccc3)(c3ccccc3)c3ccccc3)cc2)C(=O)N(C)[C@@H](CC(C)C)C(=O)N[C@@H](C(C)C)C(=O)N(C)[C@@H](CC(C)C)C(=O)N[C@@H](C)C(=O)N[C@H](C)C(=O)N(C)[C@@H](CC(C)C)C(=O)N(C)[C@@H](CC(C)C)C(=O)N(C)[C@@H](C(C)C)C(=O)N1C (stereo partly drawn) — inhibition (calcineurin; phosphatase activity, phosphate release; 720 nM, with: complex with cyclophilin A): -5%
CC(=O)N[C@@H](CCCCN)C(=O)N[C@@H](CCCCN)C(=O)N[C@@H](CO)C(=O)N[C@@H](CC(C)C)C(=O)N[C@@H](CO)C(=O)N[C@@H](CC(C)C)C(=O)N[C@@H](CO)C(=O)N[C@@H](CC(C)C)C(=O)N[C@@H](CO)C(=O)N[C@@H](CC(C)C)C(=O)N[C@@H](CO)C(=O)N[C@@H](CC(C)C)C(=O)N[C@@H](CO)C(=O)N[C@@H](CC(C)C)C(=O)N[C@@H](CCCCN)C(=O)N[C@@H](CCCCN)C(N)=O — hydrogel degradation (MMP2; 10 mg/mL, 48 h, 37 °C, with: MMP2 100 ng): no effect
COc1cc(-c2nc3ccccc3s2)cc(CN(Cc2ccccn2)Cc2ccccn2)c1O — pCu (Cu2+; 50 µM, pH 6.6, 1:1 metal:ligand): 9.6
CC[C@H](C)[C@@H]1NC(=O)[C@H](Cc2c[nH]c3ccccc23)NC(=O)[C@H](CCCN)NC(=O)CNC(=O)[C@H]2CCCN2C(=O)[C@H](C(C)C)NC(=O)[C@H](CCCCN)NC(=O)[C@H](C(C)C)NC(=O)[C@@H](NC(=O)[C@H](CCCNC(=N)N)NC(C)=O)CCCCn2cc(nn2)C[C@@H](C(=O)N[C@@H](CCC(N)=O)C(N)=O)NC1=O — half-life ratio (Serine protease 1 (PRSS1, Bos taurus, UniProt P00760); substrate; pH 7.6, 37 °C; relative to: cyclic over non-cyclic peptide): 4
[64Cu+2].c1cnc(CNCc2ccc(CN3CCCN4CCNCCCN(CC4)CC3)cc2)nc1 — tissue uptake (CXCR4; NOD/SCID mouse, U87 and U87-stb-CXCR4 xenografts, pancreas; iv, 450 min, ex vivo): 1.66 ± 0.09 %ID/g
Cc1cccc(C)c1NC(=O)CC(C)NCc1cccc2ccccc12 (stereo not drawn) — Hill coefficient (KCNH2; tail current inhibition, patch clamp; tsA201 transfected with KCNH2; 0.2% DMSO): 0.77 ± 0.13
CCc1cc(C)n2nc(-c3ccc(OCC[18F])cc3)c(CC(=O)N(CC)CC)c2n1 — K1/k2 ratio (Tspo (Rattus norvegicus, UniProt P16257); two-tissue compartment model; rat C6 glioma model, tumor; 60 min dynamic PET): 3.05 mL/cm3
CCC(=O)N(C)c1ccc(Cl)c(Cl)c1 — inhibition (KCNH2; ion current, inhibitor, patch clamp; HEK293; 5 µM): 2.03%

Some of these lines once more:
CC(C)C[C@H](NC(=O)[C@@H]1CCCN1C(=O)[C@H](CCCCNC(=O)CN1CCN(CC(=O)O)CCN(CC(=O)O)CCN(CC(=O)O)CC1)NC(=O)CC[C@@H]1NC(=O)[C@@H](Cc2ccccc2)NC(=O)[C@H](CC(=O)O)NC(=O)CNC(=O)[C@H](CCCNC(=N)N)NC1=O)C(=O)NCC(=O)O [copper-64 labelled] — peptide cleavage (MMP2; substrate, radio-HPLC): no effect
COc1cc2c(CCNC(C)=O)c[nH]c2cc1OS(=O)(=O)O — concentration (Abcg2 (mouse); FVB/N wild-type male mice, small intestinal content; oral, 10 mg/kg melatonin, 1 h): 10000 ± 3500 ng/g
